Measurements collected from several papers.
Each line is one published result; not all experiments were run side by side. “And” joins repeats or separate records; there may be more than shown. In brackets after ≈: the same amount, converted by molar mass.
UCHL1: Ubiquitin carboxyl-terminal hydrolase isozyme L1 (UCHL1, Homo sapiens, UniProt P09936)
UniProt P09936, sequence (whole entry, looked up): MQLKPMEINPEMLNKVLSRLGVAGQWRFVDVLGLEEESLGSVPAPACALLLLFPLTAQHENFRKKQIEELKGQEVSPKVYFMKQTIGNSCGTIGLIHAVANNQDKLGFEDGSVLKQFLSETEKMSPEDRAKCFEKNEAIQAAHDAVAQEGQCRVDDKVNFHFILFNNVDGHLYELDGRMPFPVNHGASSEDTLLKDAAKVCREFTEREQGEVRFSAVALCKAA

The EC90 of `O=c1[nH]cc(F)c(=O)[nH]1` is reported as 30 µM (Toxoplasma gondii; parasite growth; HFF, bradyzoite, glutamine-induced).
The sarcomere length of `CC(C)NCC(O)c1ccc(O)c(O)c1` (stereo not drawn) is reported as 1.49 µm (ventricular cardiomyocytes, C57BL/6 mouse; dose not given, 0.196 s).
`COc1ccc(C(=O)C#Cc2ccc(F)c(F)c2)cc1` has a biofilm formation of 88% (Pseudomonas aeruginosa; static biofilm; PA14; 10 µM, 24 h, static; baseline: DMSO).
`Cn1cc(-c2ccc(-c3cncc(Cl)c3N3CCC4(CCNC4=O)CC3)cc2)cn1`: “log2 fold change” -1.63 (COLO 205; gene expression, microarray, measured: PLAC8 mRNA; concentration not given, 2 h; baseline: untreated cells).
With `OC(Cn1cncn1)(Cn1cncn1)c1ccc(F)cc1F` the MIC was 3.12 µM (≈ 0.957 µg/mL) (Nakaseomyces glabratus; CG4, azole-susceptible, RPMI 1640; 24 h, 35 °C).
For `OC[C@H]1O[C@@H](O[C@@H]2[C@@H](O)[C@H](O[C@@H]3[C@@H](O)[C@H](O[C@@H]4[C@@H](O)[C@H](O[C@H]5[C@H](O)[C@@H](CO)OC(O)[C@@H]5O)O[C@H](CO)[C@H]4O)O[C@H](CO)[C@H]3O)O[C@H](CO)[C@H]2O)[C@H](O)[C@@H](O)[C@@H]1O` (stereo partly drawn), the ΔH was -46.9 kcal/mol (Bacteroides uniformis; binding, ITC; pH 7.0, 25 °C, distal domain).
`Clc1ccc(C(c2ccc(Cl)cc2)n2cc[n+](CC(OCc3ccc(Cl)cc3Cl)c3ccc(Cl)cc3Cl)c2)cc1` (stereo not drawn) has an EC90 of 8.79 µM (Toxoplasma gondii; parasite growth; HFF, bradyzoite, alkaline-induced).
`COc1cc(-c2[nH]nnc2C(=O)c2ccccc2)ccc1O` has a biofilm formation of 70% (Pseudomonas aeruginosa; static biofilm; PA14; 10 µM, 24 h; baseline: DMSO).
`Nc1nc(-c2ccccc2)nc2[nH]nc(Nc3ccc(C(F)(F)F)cc3)c12` has a clinical score of 0.33 (coxsackievirus B3; 31-1-93, NMRI mice, CVB3 chronic myocarditis; oral, 100 mg/kg twice daily, day 9, dosed days 1 to 7, score scale 0 to 7; direction not given).
`COc1cccc(C(=O)C#Cc2ccc(O)c(OC)c2)c1` has a mRNA level of 60% (Pseudomonas aeruginosa; RT-qPCR, measured: phzC1; biofilm cells; 10 µM, 24 h; baseline: untreated).
`OC[C@H]1O[C@@H](O[C@@H]2[C@@H](O)[C@H](O[C@@H]3[C@@H](O)[C@H](O[C@H]4[C@H](O)[C@@H](CO)OC(O)[C@@H]4O)O[C@H](CO)[C@H]3O)O[C@H](CO)[C@H]2O)[C@H](O)[C@@H](O)[C@@H]1O` (stereo partly drawn) gave a ΔH of -25.5 kcal/mol (Bacteroides uniformis; binding, ITC; pH 7.0, 25 °C, middle domain).
For `OC(CCN1CCCCC1)(c1ccccc1)C1CC2C=CC1C2` (stereo not drawn), “change in EEG Beta2-power Fz-Cz” read -8.6% (resting-state EEG; healthy elderly humans; oral, 2 mg, eyes closed, LS mean; baseline: baseline).
`OC[C@H]1O[C@@H](O[C@@H]2[C@@H](O)[C@H](O[C@@H]3[C@@H](O)[C@H](O[C@@H]4[C@@H](O)[C@H](O[C@@H]5[C@@H](O)[C@H](O[C@H]6[C@H](O)[C@@H](CO)OC(O)[C@@H]6O)O[C@H](CO)[C@H]5O)O[C@H](CO)[C@H]4O)O[C@H](CO)[C@H]3O)O[C@H](CO)[C@H]2O)[C@H](O)[C@@H](O)[C@@H]1O` (stereo partly drawn) gave a ΔH of -45.5 kcal/mol (Bacteroides uniformis; binding, ITC; pH 7.0, 25 °C, distal domain).
With `O=C(/C=C/c1ccc(O)c(O)c1)OCCc1ccccc1` the EC90 was 9.13 µM (Toxoplasma gondii; parasite growth; HFF, bradyzoite, glutamine-induced).
With `CC#CC(=O)N1CCN(S(=O)(=O)c2cccs2)CC1` the labelling was 9.64% (UCHL1; covalent, intact protein LC-MS; 12.5 µM).
`CC(C)n1ncc2c(C(=O)NCC3(C)CNC3)cc(C3CC3)nc21` has a cell protection of 105% and 106% and 107% (Enterovirus D68; cytopathic effect; RD, US/MO/14-18947; 1500 nM).
With `O=C(C#Cc1ccc(F)c(F)c1)c1cccc(Cl)c1` the biofilm formation was 56% (Pseudomonas aeruginosa; static biofilm; PA14; 10 µM, 24 h, static; baseline: DMSO).
Under “log2 fold change”, `c1coc(-c2n[nH]cc2-c2ccnc3ccccc23)c1` is recorded as -0.17 (RCK2 (Candida albicans); kinase binding, MIB/MS competition; Candida albicans lysate; 10 µM; baseline: DMSO).
`CC1CCC(C(C)C)C(OC(=O)Cn2c(-c3ccc(Br)cc3)[n+](C)c3ccccc32)C1.[Cl-]` (stereo not drawn) has an inhibition of 22.7% (Trypanosoma cruzi; reporter translation, Renilla luciferase mRNA translation; cell-free extract; 40 µM; baseline: DMSO).
The EC50 of `CC[C@H]1CN2CCc3cc(OC)c(OC)cc3[C@@H]2C[C@@H]1C[C@H]1NCCc2cc(OC)c(OC)cc21` is reported as 2.5 µM (Toxoplasma gondii; bradyzoite growth; pH 8.2, alkaline-induced bradyzoites).
`Oc1ccccc1-c1n[nH]cc1-c1ccnc2ccccc12`: “log2 fold change” -0.44 (FUN31 (Candida albicans); kinase binding, MIB/MS competition; Candida albicans lysate; 10 µM; baseline: DMSO).
`Oc1ncnc2[nH]ncc12` gave an EC90 of 30 µM (Toxoplasma gondii; parasite growth; HFF, bradyzoite, glutamine-induced).
With `COc1cc(C#CC(=O)c2ccc(C(F)(F)F)cc2)ccc1O` the biofilm formation was 66% (Pseudomonas aeruginosa; static biofilm; PA14; 10 µM, 24 h, static; baseline: DMSO).
The labelling of `CC(Cl)C(=O)N(Cc1nc(C2CCCCCC2)no1)C1CC1` (stereo not drawn) is reported as 47.1% (UCHL1; covalent, intact protein LC-MS; 12.5 µM).

For quick reference, copied from above:
The EC90 of `O=c1[nH]cc(F)c(=O)[nH]1` is reported as 30 µM (Toxoplasma gondii; parasite growth; HFF, bradyzoite, glutamine-induced).
The sarcomere length of `CC(C)NCC(O)c1ccc(O)c(O)c1` (stereo not drawn) is reported as 1.49 µm (ventricular cardiomyocytes, C57BL/6 mouse; dose not given, 0.196 s).
`COc1ccc(C(=O)C#Cc2ccc(F)c(F)c2)cc1` has a biofilm formation of 88% (Pseudomonas aeruginosa; static biofilm; PA14; 10 µM, 24 h, static; baseline: DMSO).
